Published values from different studies.
Each numbered part is a random draw from the data of one study; scales do not carry over between parts.
UniProt Q8NEB9, sequence (whole entry, looked up): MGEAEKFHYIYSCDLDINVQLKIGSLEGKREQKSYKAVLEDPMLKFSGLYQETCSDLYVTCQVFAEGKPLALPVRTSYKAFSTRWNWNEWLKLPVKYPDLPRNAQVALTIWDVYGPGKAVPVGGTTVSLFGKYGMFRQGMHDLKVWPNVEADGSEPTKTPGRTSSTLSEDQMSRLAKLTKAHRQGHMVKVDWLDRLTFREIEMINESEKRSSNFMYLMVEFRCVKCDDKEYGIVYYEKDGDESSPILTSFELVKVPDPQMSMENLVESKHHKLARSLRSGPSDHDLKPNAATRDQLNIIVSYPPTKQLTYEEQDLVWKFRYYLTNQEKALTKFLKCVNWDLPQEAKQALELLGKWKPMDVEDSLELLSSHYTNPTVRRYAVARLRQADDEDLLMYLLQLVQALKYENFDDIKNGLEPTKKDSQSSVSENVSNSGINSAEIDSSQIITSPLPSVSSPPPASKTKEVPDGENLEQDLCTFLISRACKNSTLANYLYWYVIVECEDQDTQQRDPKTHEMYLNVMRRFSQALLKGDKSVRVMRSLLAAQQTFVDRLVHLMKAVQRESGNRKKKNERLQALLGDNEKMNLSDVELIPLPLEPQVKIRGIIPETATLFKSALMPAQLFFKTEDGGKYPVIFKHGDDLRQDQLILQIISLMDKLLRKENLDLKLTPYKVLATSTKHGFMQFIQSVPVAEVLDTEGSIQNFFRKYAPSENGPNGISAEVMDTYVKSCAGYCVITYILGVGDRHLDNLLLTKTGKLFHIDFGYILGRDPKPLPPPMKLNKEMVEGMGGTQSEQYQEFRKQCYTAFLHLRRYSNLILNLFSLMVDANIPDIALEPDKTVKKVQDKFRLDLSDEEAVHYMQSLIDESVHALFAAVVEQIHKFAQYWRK
UniProt P51812, sequence (whole entry, looked up): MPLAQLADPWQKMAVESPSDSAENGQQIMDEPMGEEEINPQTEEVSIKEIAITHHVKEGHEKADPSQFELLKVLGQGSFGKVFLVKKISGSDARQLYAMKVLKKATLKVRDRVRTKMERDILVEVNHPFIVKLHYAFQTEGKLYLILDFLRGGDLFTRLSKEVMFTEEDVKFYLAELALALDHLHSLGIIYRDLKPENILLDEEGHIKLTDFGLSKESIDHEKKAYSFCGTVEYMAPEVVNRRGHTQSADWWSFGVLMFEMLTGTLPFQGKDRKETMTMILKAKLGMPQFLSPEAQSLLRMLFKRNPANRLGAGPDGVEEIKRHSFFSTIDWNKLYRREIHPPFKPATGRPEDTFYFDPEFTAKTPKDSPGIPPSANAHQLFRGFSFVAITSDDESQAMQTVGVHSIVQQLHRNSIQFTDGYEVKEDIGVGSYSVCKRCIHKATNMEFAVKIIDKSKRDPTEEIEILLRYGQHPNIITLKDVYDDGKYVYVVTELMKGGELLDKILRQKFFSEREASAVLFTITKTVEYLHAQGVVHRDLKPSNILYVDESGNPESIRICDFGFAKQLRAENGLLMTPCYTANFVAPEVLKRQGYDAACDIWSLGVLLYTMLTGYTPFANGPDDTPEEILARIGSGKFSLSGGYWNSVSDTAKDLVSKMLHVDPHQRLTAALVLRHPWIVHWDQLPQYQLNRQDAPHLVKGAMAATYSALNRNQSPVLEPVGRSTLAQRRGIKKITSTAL
UniProt Q9HC98, sequence (whole entry, looked up): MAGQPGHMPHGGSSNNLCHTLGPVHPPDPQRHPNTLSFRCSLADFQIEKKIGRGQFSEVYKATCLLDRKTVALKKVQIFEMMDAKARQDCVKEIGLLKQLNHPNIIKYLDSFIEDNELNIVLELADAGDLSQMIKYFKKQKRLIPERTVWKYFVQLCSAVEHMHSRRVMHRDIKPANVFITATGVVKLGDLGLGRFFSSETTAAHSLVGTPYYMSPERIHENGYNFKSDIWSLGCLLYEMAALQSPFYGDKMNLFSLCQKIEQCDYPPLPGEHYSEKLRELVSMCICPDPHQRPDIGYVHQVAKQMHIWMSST

Block 1 — technique: RNA Bind-n-Seq; molecule type: RNA; sample: in vitro; concentration: not given; reference: input RNA pool; reading: higher = stronger binding
Target: RING finger protein unkempt homolog, zinc fingers 1-6, GST-SBP tag (UNK, Homo sapiens, UniProt Q9C0B0, residues 30-357)
UniProt Q9C0B0, sequence (30-357, looked up): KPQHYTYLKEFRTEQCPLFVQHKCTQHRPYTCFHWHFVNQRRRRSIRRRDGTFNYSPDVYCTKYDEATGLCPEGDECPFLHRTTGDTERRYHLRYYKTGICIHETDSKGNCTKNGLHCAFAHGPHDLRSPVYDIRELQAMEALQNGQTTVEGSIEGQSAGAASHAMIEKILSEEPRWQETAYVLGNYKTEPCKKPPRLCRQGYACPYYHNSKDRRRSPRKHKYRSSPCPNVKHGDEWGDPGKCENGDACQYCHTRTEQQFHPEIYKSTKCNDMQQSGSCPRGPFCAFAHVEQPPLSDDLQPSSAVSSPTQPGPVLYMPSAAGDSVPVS
Setting: RNA with constant flanks, human and mouse sites, ends assumed
`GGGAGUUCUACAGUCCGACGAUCCUCACUUUCUAUGAAGAAGUUACAAGUAAGCAAAUCUGUACAGCCAUGCAGACACUGUACCAGAUGCAUAAUGCUGAGCAGUACAGCAGUGUGUACGCUUCAUCCUCUUGCAGUAUGGACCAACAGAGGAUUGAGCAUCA` gave a bound/input enrichment of 0.44 ratio.
With `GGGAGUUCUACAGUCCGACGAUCAAGGUAUUUGGAGGUACUGUGCACAAAAAAAGUGUCAGAGAAGAUGGAGUUUUCAACAUUAGUGUGGAUAAUACAUGUUCAUUAUUCAGGGGCCUUCAGAAGGAAGAAGUUGUUUUGCUUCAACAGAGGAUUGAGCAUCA` the bound/input enrichment was 0.358 ratio.
`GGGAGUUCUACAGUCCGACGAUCGGACUUGAACAACUCACCAAGUCUCCAGUGGAAUUUGUAGAAUAUAACAAAAUGCAGCUUAGCAGGAUAUAUCCAAAAGGAACACGUGUGGAUUCAUCCAACUAUAUGCCUCAGCUCUUCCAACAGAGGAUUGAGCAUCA` gave a bound/input enrichment of 0.868 ratio.
`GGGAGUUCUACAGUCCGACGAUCCCGGGACACUGCCUGAUGUUCGAUCACCGGCCACGGUCCUGGCGAGAGCUGCCCCUGCGGCUAGCUGACUUUGGUGUGCUGCAUAGGAAUGAGCUCUCGGGGGCUCUCACCGGGCUCACACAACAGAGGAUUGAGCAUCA` has a bound/input enrichment of 0.178 ratio.
For `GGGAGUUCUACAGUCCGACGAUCUAUUUUGAGCAUCCGUGCUAACCUGGGAACUGGCAUCUCUAUUGUUUGCUUCUGCUCAAGCUCCAUGAAACUCCAUGAAUCAGAAGAACUUCACCUGCAGACUUCUUCAAAUGACAGGGGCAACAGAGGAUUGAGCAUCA`, the bound/input enrichment was 0.193 ratio.
For `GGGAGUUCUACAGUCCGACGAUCUUUGGUAAUGAAUAAAUUCUGCUAGUGGUAUAUGUUGAUCUGAACUUACAAUGAUGGGAUAUAGAAUUGGCAGAGUGGCAGAUGUUCACAAUUGUCUACAAGUAGAUGUGCUAGACAAUGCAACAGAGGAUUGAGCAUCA`, the bound/input enrichment was 0.356 ratio.
`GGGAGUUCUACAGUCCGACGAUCGCUAGUAACAAUCGUUUAUUUCAGCUUGUAAUGAAAGGCCUGCUUUAUGAAUGCUGUGUAGAAUUUUGUCAGAGUAAAGCAACUGGAGAAGAAAUUACAGAAAGCGAAGUGCUUCUUGGCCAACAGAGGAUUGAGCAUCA` gave a bound/input enrichment of 0.453 ratio.
`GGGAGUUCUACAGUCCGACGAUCAGCACUAAAACAUUAACUAAACAACAGUCAACCACAUUUCCAAAGAACUCUGCUUUAAAACAAGAUGUGAAGCGAACAUUUGGAUCAACCUCACAAUCAAGUAGUUUUUCAAAAAUUCAUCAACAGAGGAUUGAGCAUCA` gave a bound/input enrichment of 2.46 ratio.

Block 2 — organism: Saccharomyces cerevisiae; read-out: binding; technique: competitive growth deep sequencing; molecule type: peptide; strain: cyclin D3-Cln2 fusion strain; setting: peptide tiling library; reading: direction not given
`EHCRVLFLDHVMYTIH` gave an enrichment score of -0.616.
With `QNPCGSKACRRLFGPV` the enrichment score was -1.36.
The enrichment score of `KVRRNLFNQELLSP` is reported as -1.38.
With `ESSQLTVQAEFDMSAI` the enrichment score was 1.27.
`ATNSSHTDAHEILVSD` gave an enrichment score of 0.0771.
The enrichment score of `QYQVVDDIVSKLVFDF` is reported as -0.154.
With `RQVRRDLFAF` the enrichment score was -1.97.
`EPRNLLSLFEDTLDPT` has an enrichment score of -0.0764.

Block 3 — read-out: enzyme activity; action: inhibitor; concentration: 0.5 µM; reference: control
Target: Serine/threonine-protein kinase MRCK alpha (CDC42BPA, Homo sapiens, UniProt Q5VT25)
UniProt Q5VT25, sequence (whole entry, looked up): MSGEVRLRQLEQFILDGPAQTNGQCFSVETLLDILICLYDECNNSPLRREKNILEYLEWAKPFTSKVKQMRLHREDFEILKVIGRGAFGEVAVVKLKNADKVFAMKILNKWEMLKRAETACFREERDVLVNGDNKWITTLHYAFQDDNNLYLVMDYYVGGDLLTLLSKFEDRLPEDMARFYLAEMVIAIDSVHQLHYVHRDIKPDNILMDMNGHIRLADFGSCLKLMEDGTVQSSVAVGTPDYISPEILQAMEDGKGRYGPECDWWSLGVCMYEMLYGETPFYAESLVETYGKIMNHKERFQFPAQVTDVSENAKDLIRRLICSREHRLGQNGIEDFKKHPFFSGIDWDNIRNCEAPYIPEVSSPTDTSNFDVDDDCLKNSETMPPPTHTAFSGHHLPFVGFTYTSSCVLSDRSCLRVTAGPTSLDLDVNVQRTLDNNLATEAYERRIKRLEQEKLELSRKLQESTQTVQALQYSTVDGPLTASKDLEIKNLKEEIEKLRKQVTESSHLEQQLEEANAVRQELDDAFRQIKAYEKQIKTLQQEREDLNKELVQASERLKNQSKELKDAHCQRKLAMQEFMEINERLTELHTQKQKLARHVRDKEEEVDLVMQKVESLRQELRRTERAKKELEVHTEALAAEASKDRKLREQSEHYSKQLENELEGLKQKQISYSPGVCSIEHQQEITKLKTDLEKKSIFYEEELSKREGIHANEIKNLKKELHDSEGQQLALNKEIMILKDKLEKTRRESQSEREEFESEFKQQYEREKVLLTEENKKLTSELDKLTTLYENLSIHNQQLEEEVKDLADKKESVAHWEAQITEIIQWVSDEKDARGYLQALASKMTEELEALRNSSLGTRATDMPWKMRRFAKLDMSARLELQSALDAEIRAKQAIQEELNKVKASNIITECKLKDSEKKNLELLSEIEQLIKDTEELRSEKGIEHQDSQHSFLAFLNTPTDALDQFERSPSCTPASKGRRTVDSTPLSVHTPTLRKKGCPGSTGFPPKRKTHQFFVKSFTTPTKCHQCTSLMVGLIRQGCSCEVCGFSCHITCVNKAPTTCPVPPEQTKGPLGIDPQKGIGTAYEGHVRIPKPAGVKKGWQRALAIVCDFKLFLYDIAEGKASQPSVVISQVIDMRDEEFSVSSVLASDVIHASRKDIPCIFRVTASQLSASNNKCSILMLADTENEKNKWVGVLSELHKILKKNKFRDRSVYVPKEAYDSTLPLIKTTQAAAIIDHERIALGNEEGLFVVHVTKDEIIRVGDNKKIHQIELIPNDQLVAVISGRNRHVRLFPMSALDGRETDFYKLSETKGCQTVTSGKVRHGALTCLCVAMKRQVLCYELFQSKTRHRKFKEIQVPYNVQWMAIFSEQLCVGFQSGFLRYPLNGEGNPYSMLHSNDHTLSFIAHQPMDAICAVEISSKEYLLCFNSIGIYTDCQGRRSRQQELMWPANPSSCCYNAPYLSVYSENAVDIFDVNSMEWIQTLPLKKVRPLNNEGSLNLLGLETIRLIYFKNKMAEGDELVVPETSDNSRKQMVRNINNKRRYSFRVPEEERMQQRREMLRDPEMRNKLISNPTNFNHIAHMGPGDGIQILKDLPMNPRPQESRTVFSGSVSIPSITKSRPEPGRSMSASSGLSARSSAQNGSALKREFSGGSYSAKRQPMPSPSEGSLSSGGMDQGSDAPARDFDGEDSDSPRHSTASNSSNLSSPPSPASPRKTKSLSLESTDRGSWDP
The remaining activity of `O=Nc1c(-c2c(O)[nH]c3cc(Br)ccc23)[nH]c2ccccc12` is reported as 94%.
The remaining activity of `COc1cccc(-c2cc(=O)c3ccccc3o2)c1N` is reported as 98.5%.
`O=C(c1cc2cc(O)ccc2[nH]1)c1cc2cc(O)ccc2[nH]1` has a remaining activity of 90.2%.

Block 4 — read-out: cell-free assay; technique: competition with immobilised ligand; concentration: 1 µM
SMILES: CN(C(=O)c1ccccc1)c1cc(N(C)c2ccc3c(c2)CCc2ccc(C(=O)NCCN4CCOCC4)cc2C3=O)ccc1F
The remaining binding was 83% (Ribosomal protein S6 kinase alpha-3, C-terminal kinase domain (RPS6KA3, Homo sapiens, UniProt P51812)).
For Serine/threonine-protein kinase Nek6 (NEK6, Homo sapiens, UniProt Q9HC98): remaining binding read 91%.
Phosphatidylinositol 3-kinase catalytic subunit type 3 (PIK3C3, Homo sapiens, UniProt Q8NEB9) — remaining binding: 100%.

Excerpt of the above (block 3):
The remaining activity of `O=Nc1c(-c2c(O)[nH]c3cc(Br)ccc23)[nH]c2ccccc12` is reported as 94%.
`O=C(c1cc2cc(O)ccc2[nH]1)c1cc2cc(O)ccc2[nH]1` has a remaining activity of 90.2%.
